Results collected from several papers.
Every numbered part comes from another study and shows a few of its results, in no order. Substitutions count along the parent as printed.

Study 1 — method: protein binding microarray; molecule type: double-stranded DNA, one strand shown; medium: in vitro; concentration: not given; relative to: not given; reading: higher = stronger binding
Target: Histone acetyltransferase KAT6A, winged helix 1, GST fusion (KAT6A, Homo sapiens, UniProt Q92794, residues 1-85)
Notes: 8-mer, flanks averaged, mean of 2 arrays, mostly near background
Target sequence (chain): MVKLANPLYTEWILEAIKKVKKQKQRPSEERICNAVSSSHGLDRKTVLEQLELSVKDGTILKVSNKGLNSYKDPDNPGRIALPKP
Oligonucleotide	E-score
AAGATATG	-0.18
ATTTGGCG	-0.0805
TCGTCAGA	-0.172
CCGTTAAA	0.147
ATTCCAAC	-0.227
CTTGCCTA	-0.243
CTCCGAAC	0.133
AGCAACGC	0.083
AGGAGAAC	-0.119
CATTAGGA	-0.0717
AGCCTGCG	0.0813
AGGCGGGG	0.198

Study 2 — method: universal PBM; molecule type: double-stranded DNA, one strand shown; medium: in vitro; concentration: not given; reading: higher = stronger binding
Target: Sal-like protein 4, full length isoform B (SALL4, Homo sapiens, UniProt Q9UJQ4-2, residues 1-616)
Notes: 8-mer, flanks averaged, mean of replicates
Residues (chain): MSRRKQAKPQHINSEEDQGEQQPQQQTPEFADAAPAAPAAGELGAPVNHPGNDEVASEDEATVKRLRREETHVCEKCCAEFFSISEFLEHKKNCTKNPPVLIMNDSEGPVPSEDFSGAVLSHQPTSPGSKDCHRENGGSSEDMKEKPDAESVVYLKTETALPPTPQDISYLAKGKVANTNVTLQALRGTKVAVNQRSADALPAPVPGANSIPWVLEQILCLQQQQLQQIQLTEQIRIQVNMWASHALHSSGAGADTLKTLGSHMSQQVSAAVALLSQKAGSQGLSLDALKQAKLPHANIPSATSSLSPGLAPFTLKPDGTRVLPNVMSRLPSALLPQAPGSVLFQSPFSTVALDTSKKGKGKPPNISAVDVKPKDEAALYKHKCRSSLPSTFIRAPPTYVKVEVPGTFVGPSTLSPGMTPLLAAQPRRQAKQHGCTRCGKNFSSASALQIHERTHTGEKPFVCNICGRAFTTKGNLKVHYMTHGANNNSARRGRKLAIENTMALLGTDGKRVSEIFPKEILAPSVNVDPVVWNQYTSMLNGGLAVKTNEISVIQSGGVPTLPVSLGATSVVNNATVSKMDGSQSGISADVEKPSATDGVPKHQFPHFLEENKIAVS
Oligonucleotide	E-score
CGTCAGAC	-0.0743
CACGATTA	0.132
ACGGTTGC	-0.202
AACCACAT	0.237
GTTGGAAA	0.035
AACGGGCG	-0.125
ACCGAGAA	-0.0237
CTCCCTAC	0.00374

Study 3 — target: CCNB1, cyclin fold, Cln2 fusion (human); method: yeast growth competition, sequencing; medium: yeast; notes: strong parent motif; relative to: not given; reading: higher = stronger binding
Starting sequence: E2F1 docking peptide (human); PPVKRRLDFETDH; partner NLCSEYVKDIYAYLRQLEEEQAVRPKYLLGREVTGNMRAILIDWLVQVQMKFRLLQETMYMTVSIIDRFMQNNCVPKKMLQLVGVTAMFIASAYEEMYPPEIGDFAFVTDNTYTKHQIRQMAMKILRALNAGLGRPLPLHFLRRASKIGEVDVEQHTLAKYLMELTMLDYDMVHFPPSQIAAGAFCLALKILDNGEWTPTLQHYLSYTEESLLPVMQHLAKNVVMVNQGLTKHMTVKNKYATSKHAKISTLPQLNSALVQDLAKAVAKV
Variant	normalised enrichment score
V3L	3.52
P2R	4.4
D8V	4.2
D12G	5.12
K4S	4.92
V3Q	0.417
R5K	4.16
P2K	4.79
R6L	1.79
E10N	5.17
D8S	4.68

Other studies, line by line
Molecule	target	assay	system	conditions	how to read	quantity	value
PhoQ, residues 284 288 289 292 302 303 TNASYF	PhoP, residues 12 14 15 18 19 LYFRQ (Escherichia coli, UniProt P23836)	Sort-seq, item: YFP reporter	E. coli	PhoQ-PhoP variant library, with: 10 µM Mg2+	relative to: high Mg2+ state, higher = stronger signaling	fold induction	14.2

Excerpt of the above (study 2):
Oligonucleotide	E-score
CACGATTA	0.132
ACCGAGAA	-0.0237
CGTCAGAC	-0.0743
GTTGGAAA	0.035
